Measured values pooled from the literature.
Every numbered part comes from another study and shows a few of its results, in no order. Positions count from the first letter of the parent shown.

Set 1 — target: CCND3, cyclin fold, Cln2 fusion (human); technique: yeast growth competition, sequencing; matrix: yeast; notes: weak parent motif; baseline: not given; reading: higher = stronger binding
Starting sequence: RBL1 docking peptide (human); GSAKRRLFGEDPP
Substitution	normalised enrichment score
GSAKRRLFGEDPT [P13T]	0.129
GSAKRRLFAEDPP [G9A]	0.217
GSAKMRLFGEDPP [R5M]	0.182
GSAKRRLFGEHPP [D11H]	0.0538
GSAKRRQFGEDPP [L7Q]	0.144
GSQKRRLFGEDPP [A3Q]	0.132

Set 2 — technique: universal PBM; molecule type: double-stranded DNA, one strand shown; matrix: in vitro; concentration: 600 nM; reading: higher = stronger binding
Target: Sal-like protein 4, full length isoform A (SALL4, Homo sapiens, UniProt Q9UJQ4, residues 1-1053)
Chain of UniProt Q9UJQ4 (whole entry, looked up): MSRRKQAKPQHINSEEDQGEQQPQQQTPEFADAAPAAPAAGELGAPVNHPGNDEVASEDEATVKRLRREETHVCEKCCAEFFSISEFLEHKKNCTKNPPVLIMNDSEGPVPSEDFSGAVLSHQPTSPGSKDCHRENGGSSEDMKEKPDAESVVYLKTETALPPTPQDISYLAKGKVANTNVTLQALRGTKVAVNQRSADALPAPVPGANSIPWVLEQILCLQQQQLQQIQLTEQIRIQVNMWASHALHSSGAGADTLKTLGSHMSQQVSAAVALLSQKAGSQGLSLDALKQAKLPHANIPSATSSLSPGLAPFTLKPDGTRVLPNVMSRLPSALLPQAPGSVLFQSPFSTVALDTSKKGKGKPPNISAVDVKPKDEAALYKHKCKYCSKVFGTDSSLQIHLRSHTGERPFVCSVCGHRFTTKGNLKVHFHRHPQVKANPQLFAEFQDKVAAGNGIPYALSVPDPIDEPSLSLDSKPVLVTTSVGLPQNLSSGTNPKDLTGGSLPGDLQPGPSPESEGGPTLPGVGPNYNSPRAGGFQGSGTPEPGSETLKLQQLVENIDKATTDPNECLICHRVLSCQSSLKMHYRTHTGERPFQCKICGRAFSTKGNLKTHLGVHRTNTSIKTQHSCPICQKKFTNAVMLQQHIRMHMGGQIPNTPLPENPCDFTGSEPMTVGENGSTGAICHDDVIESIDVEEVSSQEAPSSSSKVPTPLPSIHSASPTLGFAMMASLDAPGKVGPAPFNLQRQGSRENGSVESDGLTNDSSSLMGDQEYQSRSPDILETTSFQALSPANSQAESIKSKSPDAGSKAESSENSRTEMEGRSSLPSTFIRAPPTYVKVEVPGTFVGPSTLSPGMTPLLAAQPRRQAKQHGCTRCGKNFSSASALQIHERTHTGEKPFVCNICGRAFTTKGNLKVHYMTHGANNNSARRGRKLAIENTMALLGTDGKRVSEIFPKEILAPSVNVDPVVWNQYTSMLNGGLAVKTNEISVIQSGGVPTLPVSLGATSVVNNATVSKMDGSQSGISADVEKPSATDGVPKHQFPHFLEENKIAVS
Notes: 8-mer, flanks averaged, mean of replicates
Strand	E-score
CATACACC	-0.0786
ACTCCAAT	-0.0298
GAAGCTCC	-0.234
ACCGGTAG	-0.268
TGGATAAA	0.254
CAAGAGCG	-0.136
GAAGAAGC	-0.121

Set 3 — technique: RNA Bind-n-Seq; molecule type: RNA; matrix: in vitro; concentration: 100 nM; baseline: input RNA pool; reading: higher = stronger binding
Target: RING finger protein unkempt homolog, zinc fingers 1-6, SBP tag (UNK, Homo sapiens, UniProt Q9C0B0, residues 30-357)
Chain of UniProt Q9C0B0 (30-357, looked up): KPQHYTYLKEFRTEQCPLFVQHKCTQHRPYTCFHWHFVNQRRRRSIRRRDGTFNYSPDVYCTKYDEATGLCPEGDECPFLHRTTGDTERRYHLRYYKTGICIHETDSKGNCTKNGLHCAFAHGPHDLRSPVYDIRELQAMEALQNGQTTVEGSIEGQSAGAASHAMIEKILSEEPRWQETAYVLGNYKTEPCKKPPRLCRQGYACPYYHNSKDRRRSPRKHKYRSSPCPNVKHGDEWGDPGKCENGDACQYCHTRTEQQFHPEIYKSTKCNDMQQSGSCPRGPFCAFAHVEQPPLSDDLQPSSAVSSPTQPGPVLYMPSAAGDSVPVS
Notes: RNA with constant flanks, vertebrate orthologous sites, ends assumed
All sequences stand within: GGGAGUUCUACAGUCCGACGAUC … CAACAGAGGAUUGAGCAUCA
Strand	bound/input enrichment
UCCCAGCACUCUGAUAAAAAGUGUGGACUGGUUGCUUGUAUUUUCCUUAUUCUUUUUAAUCAGUUUUAUUAUGUACGCUACCAUUCGAACUGAGAGUAUUCGGUGGCUGAUUCCAGGACA	0.71 ratio
GCUCUAGUUCUUAACAACCGACACUCCUACAAGAUUUAGAAAAAAGUUUACAACAUAAUCUAGUUUACAGAAAAAUCUUGUGCUAGAAUACUUUUUAAAAGGUAUUUUGAAUACCAUUAA	0.655 ratio
CAUAUCCUUGUUACUGUGAUAUUUAAAAUAUCCACAGUACUCACUUUUUCCAGAUGACUUUGGUAAUUGCCUAGAAAUAUCUUUCUCUUACCUGUUAUUUAUCAAUUUUUCCCAGUAUUU	0.609 ratio
GUCUGUCUCGCAGAGCCGGGGAGCGUCCGAGUGGCCGGGGCCCUUACUUUGUUUCUUUUCCUCGGGGUGGGGGUGGGUCGUGGCGCCCACCGUGCUGGGGCGUCAGCGUGGAUGGUGCGU	0.725 ratio
UAUUAUUCAUUUGAUUGAAAUUAUUUAGAUAAGUUAUUACUGUUUUCUUUCAAACAACAUAUCCUAUUUUUCAUCUAAUUUACAAAUAGCAGUUUGUGUGAUCUCUUCACAUACCAGAAU	0.272 ratio

Single results of other studies
Substance	target	test	system	setting	how to read	endpoint	result
PhoQ, residues 284 288 289 292 302 303 SIHLQL	PhoP, residues 12 14 15 18 19 NMSSL (Escherichia coli, UniProt P23836)	Sort-seq, item: YFP reporter	E. coli	PhoQ-PhoP variant library, added: 10 µM Mg2+	baseline: high Mg2+ state, higher = stronger signaling	fold induction	13.5
